{"data": "Values quoted from earlier work, collected from citations in different studies", "note": "Each line is one published result; not all experiments were run side by side. ± gives the spread as reported.", "UniProt P25100, sequence (whole entry, looked up)": "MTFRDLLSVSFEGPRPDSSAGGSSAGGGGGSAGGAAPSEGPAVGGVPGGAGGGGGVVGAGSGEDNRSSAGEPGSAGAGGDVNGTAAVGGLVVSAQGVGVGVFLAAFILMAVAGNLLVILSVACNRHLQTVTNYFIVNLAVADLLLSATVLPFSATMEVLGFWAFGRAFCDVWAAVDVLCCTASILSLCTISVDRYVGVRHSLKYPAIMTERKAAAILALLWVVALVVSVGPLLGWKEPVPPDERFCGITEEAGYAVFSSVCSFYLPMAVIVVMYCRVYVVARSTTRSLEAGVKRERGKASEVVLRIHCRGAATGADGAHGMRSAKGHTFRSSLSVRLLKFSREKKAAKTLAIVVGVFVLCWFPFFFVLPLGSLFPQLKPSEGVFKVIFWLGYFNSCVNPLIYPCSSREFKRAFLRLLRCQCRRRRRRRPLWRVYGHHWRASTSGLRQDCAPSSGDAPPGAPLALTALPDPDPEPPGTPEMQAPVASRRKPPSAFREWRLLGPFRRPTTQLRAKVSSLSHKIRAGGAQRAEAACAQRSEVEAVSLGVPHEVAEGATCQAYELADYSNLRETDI", "UniProt P25021, sequence (whole entry, looked up)": "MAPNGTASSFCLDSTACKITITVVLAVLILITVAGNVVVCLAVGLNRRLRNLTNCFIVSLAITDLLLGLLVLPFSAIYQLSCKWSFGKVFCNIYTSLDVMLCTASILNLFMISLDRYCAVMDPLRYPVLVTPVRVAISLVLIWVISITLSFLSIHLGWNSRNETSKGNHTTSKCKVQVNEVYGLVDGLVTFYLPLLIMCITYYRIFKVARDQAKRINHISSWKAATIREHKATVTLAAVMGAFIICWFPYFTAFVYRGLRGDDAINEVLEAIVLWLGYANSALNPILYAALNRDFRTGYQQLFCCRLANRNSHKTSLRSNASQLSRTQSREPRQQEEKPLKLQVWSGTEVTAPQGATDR"}
{"Substance": "NC(=O)[C@@H]1CC[C@@H]2CN1C(=O)N2OS(=O)(=O)O", "target": "PBP1b", "assay": "enzyme activity", "conditions": "highest concentration 50 µM", "measurement": "IC50", "value": "> 50 µM"}
{"Substance": "CCCC(=O)[O-].[Na+]", "target": "HDAC1", "assay": "inhibitor", "measurement": "IC50", "value": "175 µM"}
{"Substance": "C=CCN(CC=C)CCc1c[nH]c2ccccc12", "target": "ADRA1D (Homo sapiens, UniProt P25100)", "assay": "binding", "test system": "cloned human receptor", "conditions": "together with: [3H]prazocin", "measurement": "Ki", "value": "> 10 µM"}
{"Substance": "epigallocatechin gallate", "target": "catechol O-methyltransferase (human)", "assay": "enzyme activity, inhibitor", "conditions": "together with: 2-hydroxyestradiol", "measurement": "IC50", "value": "~0.07 µM"}
{"Substance": "O=C(O)Cc1ccc(O)c(O)c1", "target": "mitochondrial complex I rat", "assay": "enzyme activity, inhibitor", "test system": "rat brain mitochondria, digitonin-treated", "conditions": "1 min preincubation", "measurement": "IC50", "value": "61.2 ± 8.08 µM"}
{"Substance": "O=[N+]([O-])c1ccc(Oc2ccc(S(=O)(=O)NC3CCCCC3)cc2)cc1", "target": "mitochondrial complex I site IQ", "assay": "superoxide/H2O2 production, inhibitor", "measurement": "IC50", "value": "< 5 µM"}
{"Substance": "Brc1ccc(CN2CCC(CCOC(c3ccccc3)c3ccccc3)CC2)cc1", "target": "norepinephrine transporter", "assay": "reuptake, inhibitor", "measurement": "IC50", "value": "0.479 ± 0.068 µM"}
{"Substance": "CCCCC/C=C\\C/C=C\\C/C=C\\C/C=C\\CCCC(=O)NCCO", "target": "MAO-A, pig", "assay": "inhibitor", "test system": "brain cortex mitochondria", "conditions": "together with: serotonin", "measurement": "IC50", "value": "750 µM"}
{"Substance": "CC(C)CCCCC/C=C/C=C/C(=O)N[C@H](C(=O)N[C@H]1C[C@@H](O)CCNC(=O)/C=C/[C@H](C)NC1=O)[C@@H](C)O", "target": "yeast proteasome β5 subunit", "assay": "inhibitor", "test system": "purified yeast proteasome", "measurement": "IC50", "value": "0.004 µM"}
{"Substance": "CCCCCC(=O)N[C@H](C(=O)N[C@@H](CCS(C)(=O)=O)C(=O)N[C@@H](CC(C)C)C(=O)[C@@]1(C)CO1)C(C)C", "target": "Saccharomyces cerevisiae 20S proteasome β5", "assay": "chymotrypsin-like activity", "measurement": "IC50", "value": "0.0026 µM"}
{"Substance": "CCN[C@@H](C)Cc1ccc2ccccc2c1", "target": "serotonin transporter", "assay": "serotonin uptake, inhibitor", "conditions": "high internal K+", "measurement": "IC50", "value": "4 µM"}
{"Substance": "cilengitide", "target": "integrin αVβ3, human", "measurement": "IC50", "value": "0.003 µM"}
{"Substance": "CN[C@@H]1[C@@H](O)[C@@H](O[C@@H]2[C@@H](O)[C@H](O[C@H]3O[C@H]([C@@H](C)O)[C@@H](O)[C@H](O)[C@H]3N)[C@@H](N)C[C@H]2N)OC[C@]1(C)O", "target": "Escherichia coli ribosome", "assay": "translation, inhibitor, refers to: firefly luciferase", "test system": "Escherichia coli S30 lysate", "measurement": "IC50", "value": "0.009 ± 0.002 µM"}
{"Substance": "O=C(O)c1ccc2cc(-c3ccc(O)c(C45CC6CC(CC(C6)C4)C5)c3)ccc2c1", "target": "CYP26A1", "assay": "enzyme activity, inhibitor", "conditions": "together with: 9-cis-retinoic acid", "measurement": "IC50", "value": "0.04 µM"}
{"Substance": "O=C1C(O)=C([C@H]2CC[C@H](c3ccc(Cl)cc3)CC2)C(=O)c2ccccc21", "target": "human dihydroorotate dehydrogenase", "assay": "inhibitor", "measurement": "IC50", "value": "14.5 µM"}
{"Substance": "C[C@H](NC(=O)Cc1cc(F)cc(F)c1)C(=O)N[C@H]1N=C(c2ccccc2)c2ccccc2N(C)C1=O", "target": "amyloid precursor protein", "assay": "amyloid-beta production, inhibitor", "test system": "CHO", "measurement": "IC50", "value": "0.0003 µM"}
{"Substance": "C=CCN(CC=C)CCc1c[nH]c2ccc(F)cc12", "target": "HRH2 (Homo sapiens, UniProt P25021)", "measurement": "Ki", "value": "> 10 µM"}
{"Substance": "N#CSCCOc1ccc(Oc2ccccc2)cc1", "target": "squalene synthase Trypanosoma cruzi", "assay": "inhibitor", "test system": "mitochondrial membrane vesicles", "measurement": "IC50", "value": "0.129 µM"}
{"Substance": "CC(C)(C)NC(=O)N[C@H](C(=O)N1C[C@H]2[C@@H]([C@H]1C(=O)NC(CC1CCC1)C(=O)C(N)=O)C2(C)C)C(C)(C)C (stereo partly shown)", "target": "3C-like protease", "measurement": "IC50", "value": "4.13 ± 0.61 µM"}
{"Substance": "O=C(Cc1ccc(C(F)(F)F)cc1C(F)(F)F)N[C@@H]1N=C(c2ccccc2)c2ccccc2N(CC(F)(F)F)C1=O", "target": "IKs potassium current", "assay": "ion current, inhibitor", "measurement": "IC50", "value": "0.027 µM"}
{"Substance": "COc1ccc(/C=C\\c2cc(OC)c(OC)c(OC)c2)cc1OP(=O)(O)O", "target": "tubulin", "assay": "tubulin assembly, inhibitor", "measurement": "IC50", "value": "> 40 µM"}
{"Substance": "O=C(O)COc1ccc(Cl)cc1", "target": "Torpedo CLC-0 chloride channel", "assay": "chloride current, inhibitor", "conditions": "intracellular application, -150 mV", "measurement": "IC50", "value": "~1000 µM"}
{"note": "Excerpt of the above:"}
{"Substance": "O=C(Cc1ccc(C(F)(F)F)cc1C(F)(F)F)N[C@@H]1N=C(c2ccccc2)c2ccccc2N(CC(F)(F)F)C1=O", "target": "IKs potassium current", "assay": "ion current, inhibitor", "measurement": "IC50", "value": "0.027 µM"}
{"Substance": "COc1ccc(/C=C\\c2cc(OC)c(OC)c(OC)c2)cc1OP(=O)(O)O", "target": "tubulin", "assay": "tubulin assembly, inhibitor", "measurement": "IC50", "value": "> 40 µM"}
{"Substance": "O=C(O)COc1ccc(Cl)cc1", "target": "Torpedo CLC-0 chloride channel", "assay": "chloride current, inhibitor", "conditions": "intracellular application, -150 mV", "measurement": "IC50", "value": "~1000 µM"}
